Experimental data gathered from unrelated publications.
Numbered parts are unrelated; each lists some results of a single study. Positions count from the first letter of the parent shown.
Chain of UniProt P43250 (whole entry, looked up): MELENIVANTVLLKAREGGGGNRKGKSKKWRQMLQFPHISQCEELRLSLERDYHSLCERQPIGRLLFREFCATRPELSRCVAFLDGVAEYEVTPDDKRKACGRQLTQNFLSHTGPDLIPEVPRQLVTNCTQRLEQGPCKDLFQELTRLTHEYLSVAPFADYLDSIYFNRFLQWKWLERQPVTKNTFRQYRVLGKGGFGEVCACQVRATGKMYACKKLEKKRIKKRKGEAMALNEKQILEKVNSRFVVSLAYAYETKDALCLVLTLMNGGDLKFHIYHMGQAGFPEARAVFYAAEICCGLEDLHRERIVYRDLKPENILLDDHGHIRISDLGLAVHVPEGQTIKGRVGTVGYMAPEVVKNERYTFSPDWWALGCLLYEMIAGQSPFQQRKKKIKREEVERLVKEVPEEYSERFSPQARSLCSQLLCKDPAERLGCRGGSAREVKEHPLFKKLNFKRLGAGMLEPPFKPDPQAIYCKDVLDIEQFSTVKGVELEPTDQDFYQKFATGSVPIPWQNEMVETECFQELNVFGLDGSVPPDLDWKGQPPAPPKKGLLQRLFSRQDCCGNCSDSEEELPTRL

Set 1
Target: Interferon regulatory factor 3, full length, phosphomimetic (IRF3, Homo sapiens, UniProt Q14653, residues 1-427, S386D/S396D/S398D/S402D/T404D/S405D)
Technique: protein-binding microarray
Molecule type: double-stranded DNA, one strand shown
Matrix: in vitro
Concentration: 2540 nM top
Notes: 60-bp whole probe
Together with: salmon DNA 0.4 mg/ml
Baseline: random background probes
Reading: higher = stronger binding
Constant ends, left off below: GCCTAGCAC … GTCTTGATTCGCTTGACGCTGCTG
Target sequence (chain): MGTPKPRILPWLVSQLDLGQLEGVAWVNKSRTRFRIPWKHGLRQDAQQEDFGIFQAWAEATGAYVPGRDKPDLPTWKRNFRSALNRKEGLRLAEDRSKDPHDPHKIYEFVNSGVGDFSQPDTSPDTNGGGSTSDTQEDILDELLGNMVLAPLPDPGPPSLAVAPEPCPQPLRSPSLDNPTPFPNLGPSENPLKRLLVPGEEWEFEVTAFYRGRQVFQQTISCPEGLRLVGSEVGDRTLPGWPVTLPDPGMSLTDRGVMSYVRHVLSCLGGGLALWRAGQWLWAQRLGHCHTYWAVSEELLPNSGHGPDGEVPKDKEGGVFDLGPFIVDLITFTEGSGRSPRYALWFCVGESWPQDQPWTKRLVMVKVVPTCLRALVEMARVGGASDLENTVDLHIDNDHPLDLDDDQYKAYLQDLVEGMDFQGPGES
| Oligonucleotide | fitted relative affinity |
| --- | --- |
| TTAGGTTCCCTTTTCCTTTTGTGCTAG | 8.22 z-score |
| TCATTCATGAAATTTTAAACTGTGCTA | 0.481 z-score |
| GACGGACTGCTACTGCTGATGTGCTAG | -0.936 z-score |
| CTGCAGGTAGCAGAGACTTGGTGCTAG | -0.903 z-score |
| TCAATAATGGATATATAACTGTGCTAG | 0.0446 z-score |
| TTAGGTATCGACTTACGGTTAGTGCTA | 0.637 z-score |
| CTAGGTCTCCTACTGCTTTAGTGCTAG | 0.744 z-score |
| GACGGTCCCCTACTGCTGACGTGCTAG | 0.488 z-score |

Set 2
Target: RING finger protein unkempt homolog, zinc fingers 1-6, GST-SBP tag (UNK, Homo sapiens, UniProt Q9C0B0, residues 30-357)
Chain of UniProt Q9C0B0 (30-357, looked up): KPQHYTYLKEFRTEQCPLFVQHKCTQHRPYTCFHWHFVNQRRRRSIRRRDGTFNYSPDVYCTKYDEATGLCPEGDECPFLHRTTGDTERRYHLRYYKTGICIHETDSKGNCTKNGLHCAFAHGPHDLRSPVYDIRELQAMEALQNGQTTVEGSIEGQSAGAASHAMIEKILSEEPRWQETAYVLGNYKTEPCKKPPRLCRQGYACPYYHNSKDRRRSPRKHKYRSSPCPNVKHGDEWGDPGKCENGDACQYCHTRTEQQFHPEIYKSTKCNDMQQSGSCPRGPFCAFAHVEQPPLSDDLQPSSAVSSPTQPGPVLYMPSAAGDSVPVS
Technique: RNA Bind-n-Seq
Molecule type: RNA
Matrix: in vitro
Concentration: not given
Notes: RNA with constant flanks, human-mouse chimeric sites, ends assumed
Baseline: input RNA pool
Reading: higher = stronger binding
Constant ends, left off below: GGGAGUUCUACAGUCCGACGAUC … CAACAGAGGAUUGAGCAUCA
| Oligonucleotide | bound/input enrichment |
| --- | --- |
| GCUCUUGGCAAUGUAAUAAGUGCCUUGGGGGACAAGAGCAAGAGAGCCACCCAUGUCCCUUACAGAGACUCUAAGCUGACAAGACUCUUGCAGGAUUCCCUUGGGGGUAACAGCCAAACC | 0.104 ratio |
| GUACUGCAGCAGCAGGGAAAACUGCAGGAAGCUCUGAUGCAUUAUAAGGAGGCUAUUCGAAUUAGUCCUACAUUUGCUGAUGCCUACUCUAAUAUGGGAAACACUCUAAAGGAGAUGCAG | 0.543 ratio |
| CUCAGAGAUGUGGCAUAUCAGUAUGUGAAAAAGGGGGCUCGUAUAUUUGUGGAAGGGAAAAUAGACUAUGGCGAGUACAUGGAUAAAAACAAUGUGAGGCGACAAGCAACAACAAUCAUA | 0.449 ratio |
| AGAUAUUAAGUAUUUUGAAAAAACUCGAACAGAUUUGACAAGGGUAGCCAGCUUGGAGUCUAGCAACUUUGCCAAUGGUUUACCAAUCUGGGGGCUUGUUUUUCUUUUCUUCUUUCAAAU | 0.307 ratio |
| ACUCAGAGAUCCACCUCAAUUGAAGUGGGGAGUAAAGGUGUGGCCACUCAAUUCUCCUUGAUGGAUAUAUAUUUUUUUUAAUAUGAAUCUUCCUGUUCGUCCAGGGAAGAAAGAUUUGUU | 0.358 ratio |
| GAGCGUCUUGCCCGCACUGGGAUCAUCGUGACCACGAGUGAGGCUGUCCUCCUACAGCUGGUGGCUGACAAAGACCACCCGAAGUUCAAGGAAAUUCAGAACCUAAUUAAGGCGAGUGCC | 0.1 ratio |
| UCGGAUGCUGUGCUGGGUCACUUUUCAUAUCCAGAUCCUUCACAGUGGACAGAUGAAGAAUUAGGUAUCCCUCCUGAUGAUGAAGACUGACACUGUAAACUCUCUGGACGAGUAGGAGCA | 0.568 ratio |
| CCCUCCCCGGGCCACCCACCCCUCCCGGCUCCCCGCCAGAGCAAGGUUUUCUUCUUAUUUCAUAGCAAGCCAGAACAAUGUUCUACGCACAUUUUGUCCUCAGUAAACGAGGGCCUCUGG | 0.642 ratio |

Set 3
Target: CCND1, cyclin fold, Cln2 fusion (human)
Technique: yeast growth competition, sequencing
Matrix: yeast
Notes: weak parent motif
Baseline: not given
Reading: higher = stronger binding
Starting sequence: E2F1 docking peptide (human); PPVKRRLDLETDH
| Variant | normalised enrichment score |
| --- | --- |
| PPVKRRLDLEDDH [T11D] | 0.154 |
| PPVKRRLDFETDH [L9F] | 3.24 |
| PPCKRRLDLETDH [V3C] | 0.263 |
| PRVKRRLDLETDH [P2R] | -0.189 |
| PPVPRRLDLETDH [K4P] | 0.31 |
| LPVKRRLDLETDH [P1L] | 1.42 |
| PPVKGRLDLETDH [R5G] | 0.112 |
| PPVKRRLDLETDP [H13P] | 0.727 |

Single results of other studies
| Structure (SMILES) | target | read-out | mode | concentration | baseline | endpoint | result |
| --- | --- | --- | --- | --- | --- | --- | --- |
| O=C1Cc2c([nH]c3ccc([N+](=O)[O-])cc23)-c2ccccc2N1 | G protein-coupled receptor kinase 6 (GRK6, Homo sapiens, UniProt P43250) | enzyme activity | inhibitor | 0.5 µM | control | remaining activity | 93.8% |

A few entries again (set 1):
| Oligonucleotide | fitted relative affinity |
| --- | --- |
| CTGCAGGTAGCAGAGACTTGGTGCTAG | -0.903 z-score |
| TTAGGTATCGACTTACGGTTAGTGCTA | 0.637 z-score |
| GACGGACTGCTACTGCTGATGTGCTAG | -0.936 z-score |
